# Published values of several laboratories.
# A part holds a random share of what one study measured.
# Chain of UniProt P49841 (whole entry, looked up): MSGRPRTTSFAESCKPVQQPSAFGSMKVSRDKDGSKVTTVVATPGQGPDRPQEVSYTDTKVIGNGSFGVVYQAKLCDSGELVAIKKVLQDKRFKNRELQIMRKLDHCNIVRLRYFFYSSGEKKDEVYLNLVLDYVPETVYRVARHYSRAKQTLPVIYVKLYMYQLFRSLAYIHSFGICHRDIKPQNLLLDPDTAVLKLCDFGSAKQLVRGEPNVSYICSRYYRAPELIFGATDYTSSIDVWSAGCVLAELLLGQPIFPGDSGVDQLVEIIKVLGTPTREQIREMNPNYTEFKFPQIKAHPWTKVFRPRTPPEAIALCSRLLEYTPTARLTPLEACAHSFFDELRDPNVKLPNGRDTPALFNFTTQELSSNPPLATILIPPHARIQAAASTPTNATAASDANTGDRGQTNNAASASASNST
# Chain of UniProt P49137 (whole entry, looked up): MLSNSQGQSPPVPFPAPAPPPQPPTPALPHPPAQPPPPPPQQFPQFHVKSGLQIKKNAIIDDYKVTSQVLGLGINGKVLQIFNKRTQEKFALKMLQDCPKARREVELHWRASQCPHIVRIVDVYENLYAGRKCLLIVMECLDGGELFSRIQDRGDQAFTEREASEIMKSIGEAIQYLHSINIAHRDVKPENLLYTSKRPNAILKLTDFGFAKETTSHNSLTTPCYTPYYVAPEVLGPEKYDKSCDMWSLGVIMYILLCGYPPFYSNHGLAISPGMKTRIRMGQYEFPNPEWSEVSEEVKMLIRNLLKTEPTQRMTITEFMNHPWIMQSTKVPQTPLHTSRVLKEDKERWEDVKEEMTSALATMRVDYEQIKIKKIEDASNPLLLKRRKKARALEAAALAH
# Chain of UniProt P78368 (whole entry, looked up): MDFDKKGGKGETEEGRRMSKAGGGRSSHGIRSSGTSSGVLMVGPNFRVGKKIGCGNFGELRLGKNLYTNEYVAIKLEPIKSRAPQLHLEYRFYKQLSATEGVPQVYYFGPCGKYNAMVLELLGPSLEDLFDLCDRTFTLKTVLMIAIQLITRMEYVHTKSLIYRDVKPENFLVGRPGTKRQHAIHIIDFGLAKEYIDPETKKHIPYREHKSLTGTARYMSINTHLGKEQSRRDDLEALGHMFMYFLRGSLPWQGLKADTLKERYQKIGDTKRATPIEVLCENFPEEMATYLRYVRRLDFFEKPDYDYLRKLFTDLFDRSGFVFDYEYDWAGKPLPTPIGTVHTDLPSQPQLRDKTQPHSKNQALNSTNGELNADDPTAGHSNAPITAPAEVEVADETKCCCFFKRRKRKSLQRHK
# Chain of UniProt Q9HC98 (whole entry, looked up): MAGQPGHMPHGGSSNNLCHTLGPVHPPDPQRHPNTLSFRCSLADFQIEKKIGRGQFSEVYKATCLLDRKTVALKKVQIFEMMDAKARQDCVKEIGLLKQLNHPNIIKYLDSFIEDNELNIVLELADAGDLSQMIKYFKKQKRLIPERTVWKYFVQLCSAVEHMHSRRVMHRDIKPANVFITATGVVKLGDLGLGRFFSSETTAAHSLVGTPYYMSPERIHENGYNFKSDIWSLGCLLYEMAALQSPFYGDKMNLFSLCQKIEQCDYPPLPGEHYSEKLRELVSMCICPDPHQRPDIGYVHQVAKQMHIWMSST
# Chain of UniProt P22607 (whole entry, looked up): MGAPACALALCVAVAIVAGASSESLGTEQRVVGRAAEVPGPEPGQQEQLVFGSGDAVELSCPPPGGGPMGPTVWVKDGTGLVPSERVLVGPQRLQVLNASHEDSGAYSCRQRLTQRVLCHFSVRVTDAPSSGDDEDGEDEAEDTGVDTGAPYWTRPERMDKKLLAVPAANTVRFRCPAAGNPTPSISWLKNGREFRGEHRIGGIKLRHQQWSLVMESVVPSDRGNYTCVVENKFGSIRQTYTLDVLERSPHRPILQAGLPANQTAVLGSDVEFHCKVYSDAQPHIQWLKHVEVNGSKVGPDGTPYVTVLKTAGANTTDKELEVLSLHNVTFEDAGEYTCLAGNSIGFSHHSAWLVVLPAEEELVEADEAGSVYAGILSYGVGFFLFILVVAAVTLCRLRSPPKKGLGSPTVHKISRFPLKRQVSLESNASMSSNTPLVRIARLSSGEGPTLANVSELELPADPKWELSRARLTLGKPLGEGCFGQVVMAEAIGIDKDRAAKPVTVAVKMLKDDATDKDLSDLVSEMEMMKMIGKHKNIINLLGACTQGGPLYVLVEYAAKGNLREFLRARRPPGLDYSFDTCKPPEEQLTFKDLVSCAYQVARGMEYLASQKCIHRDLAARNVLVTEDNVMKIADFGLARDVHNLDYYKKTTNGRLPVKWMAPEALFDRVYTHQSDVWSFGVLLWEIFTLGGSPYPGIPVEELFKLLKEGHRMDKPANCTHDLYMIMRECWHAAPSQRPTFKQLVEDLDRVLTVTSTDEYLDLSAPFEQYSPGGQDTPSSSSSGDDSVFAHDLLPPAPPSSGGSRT
# Chain of UniProt Q15349 (whole entry, looked up): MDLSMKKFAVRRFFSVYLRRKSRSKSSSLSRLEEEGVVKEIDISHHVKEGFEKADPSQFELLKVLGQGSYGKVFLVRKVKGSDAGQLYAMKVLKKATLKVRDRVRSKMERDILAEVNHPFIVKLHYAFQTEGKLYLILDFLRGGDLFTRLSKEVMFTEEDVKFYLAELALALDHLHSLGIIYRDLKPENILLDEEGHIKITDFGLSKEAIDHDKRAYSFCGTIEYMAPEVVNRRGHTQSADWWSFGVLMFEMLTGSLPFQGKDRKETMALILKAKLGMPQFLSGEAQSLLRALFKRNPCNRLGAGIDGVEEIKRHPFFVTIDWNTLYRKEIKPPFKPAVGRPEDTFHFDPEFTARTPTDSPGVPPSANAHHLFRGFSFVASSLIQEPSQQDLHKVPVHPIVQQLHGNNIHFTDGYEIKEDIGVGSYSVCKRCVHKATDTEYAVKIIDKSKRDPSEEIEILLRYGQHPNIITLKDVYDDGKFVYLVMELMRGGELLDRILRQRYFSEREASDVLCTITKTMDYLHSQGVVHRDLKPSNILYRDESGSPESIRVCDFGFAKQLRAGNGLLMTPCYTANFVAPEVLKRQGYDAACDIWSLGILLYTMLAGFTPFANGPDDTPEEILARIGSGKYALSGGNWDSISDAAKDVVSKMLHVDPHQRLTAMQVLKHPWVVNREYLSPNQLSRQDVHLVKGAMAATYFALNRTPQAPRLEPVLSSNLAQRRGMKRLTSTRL
# Chain of UniProt Q99558 (whole entry, looked up): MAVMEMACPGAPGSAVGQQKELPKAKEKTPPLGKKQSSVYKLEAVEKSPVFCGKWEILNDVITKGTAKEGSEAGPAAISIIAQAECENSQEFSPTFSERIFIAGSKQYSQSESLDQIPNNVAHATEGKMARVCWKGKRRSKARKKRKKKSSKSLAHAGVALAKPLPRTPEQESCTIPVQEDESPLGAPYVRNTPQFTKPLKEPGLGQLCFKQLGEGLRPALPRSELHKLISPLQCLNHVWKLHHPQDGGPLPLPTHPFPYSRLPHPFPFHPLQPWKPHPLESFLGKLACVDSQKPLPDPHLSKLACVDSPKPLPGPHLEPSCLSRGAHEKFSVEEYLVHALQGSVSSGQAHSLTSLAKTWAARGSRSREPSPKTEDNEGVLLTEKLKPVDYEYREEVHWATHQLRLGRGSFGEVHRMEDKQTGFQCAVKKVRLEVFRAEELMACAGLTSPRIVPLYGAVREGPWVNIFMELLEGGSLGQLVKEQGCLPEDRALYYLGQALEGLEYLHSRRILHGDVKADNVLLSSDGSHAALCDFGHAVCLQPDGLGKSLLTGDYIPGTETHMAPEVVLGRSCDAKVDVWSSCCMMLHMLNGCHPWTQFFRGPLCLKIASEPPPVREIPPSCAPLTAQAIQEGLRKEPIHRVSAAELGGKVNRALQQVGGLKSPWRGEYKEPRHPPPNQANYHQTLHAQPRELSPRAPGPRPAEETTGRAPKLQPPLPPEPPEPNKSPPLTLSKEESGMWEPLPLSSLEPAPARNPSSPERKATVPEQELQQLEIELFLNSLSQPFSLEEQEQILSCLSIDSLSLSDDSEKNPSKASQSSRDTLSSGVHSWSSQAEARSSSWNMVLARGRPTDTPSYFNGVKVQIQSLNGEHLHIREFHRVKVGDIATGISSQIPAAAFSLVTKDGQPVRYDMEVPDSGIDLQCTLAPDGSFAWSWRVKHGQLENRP
# Chain of UniProt Q9Y6M4 (whole entry, looked up): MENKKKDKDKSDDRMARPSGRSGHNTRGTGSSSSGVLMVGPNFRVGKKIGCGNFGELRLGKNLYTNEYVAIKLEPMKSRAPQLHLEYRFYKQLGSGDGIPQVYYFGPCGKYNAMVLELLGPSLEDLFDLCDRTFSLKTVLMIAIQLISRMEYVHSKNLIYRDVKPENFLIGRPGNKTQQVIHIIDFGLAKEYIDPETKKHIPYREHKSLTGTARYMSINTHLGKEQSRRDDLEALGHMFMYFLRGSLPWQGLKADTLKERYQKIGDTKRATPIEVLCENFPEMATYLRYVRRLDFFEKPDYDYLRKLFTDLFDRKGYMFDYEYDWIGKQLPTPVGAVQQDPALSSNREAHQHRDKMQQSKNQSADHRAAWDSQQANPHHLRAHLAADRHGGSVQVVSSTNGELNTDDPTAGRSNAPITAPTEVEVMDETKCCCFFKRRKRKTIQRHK
# Chain of UniProt P27361 (whole entry, looked up): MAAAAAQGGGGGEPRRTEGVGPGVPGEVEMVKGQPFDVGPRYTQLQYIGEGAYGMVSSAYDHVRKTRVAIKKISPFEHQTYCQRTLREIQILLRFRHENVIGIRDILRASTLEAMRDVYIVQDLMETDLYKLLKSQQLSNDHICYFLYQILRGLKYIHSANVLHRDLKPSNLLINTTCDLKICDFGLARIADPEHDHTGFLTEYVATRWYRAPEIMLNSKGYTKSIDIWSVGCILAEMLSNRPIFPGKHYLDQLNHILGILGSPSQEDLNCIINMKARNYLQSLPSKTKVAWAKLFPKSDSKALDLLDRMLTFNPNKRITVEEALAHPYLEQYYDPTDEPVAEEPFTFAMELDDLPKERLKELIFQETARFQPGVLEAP

# Sample 1
# Target: Myc proto-oncogene protein, bHLH-zipper, MAX partner unstated (MYC, Homo sapiens, UniProt P01106, residues 368-449)
# Chain of UniProt P01106 (368-449, looked up): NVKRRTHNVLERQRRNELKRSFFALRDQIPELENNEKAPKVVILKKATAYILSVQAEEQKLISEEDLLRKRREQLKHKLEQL
# Technique: protein-binding microarray
# Molecule type: double-stranded DNA, one strand shown
# Sample: in vitro
# Tested at: not given
# Setting: k-mer, scored over probes, only values ≥0.25
# Reading: higher = stronger binding
Sequence,E-score
CATGAGTC,0.284
AGGCGCGG,0.314
ACGCCCGC,0.256
AACACGCG,0.441
CGTGTTGA,0.288
GTGGCAGA,0.318
ATGTGGTC,0.366
CATGCTAA,0.332

# Sample 2
# Cell line: sample B colorectal tumour organoid
# Tested at: 1 µM
# Relative to: DMSO
SMILES,viability [%]
COc1cc(Nc2ccnc3ccc(Br)cc23)cc(OC)c1OC,109
Cc1ncc(-c2cc(Cl)ccc2F)cc1-n1c(=O)n(CC(N)=O)c2ccccc21,114
O=C(Nc1cccnn1)N1CC(CC=Cc2cncc(Oc3ccc(C(F)(F)F)cn3)n2)C1,121
O=C(NCc1ccccc1)c1ccc(S(=O)(=O)NCc2ccccc2)cc1,95.9

# Sample 3
# SMILES: CC[n+]1c(/C=C/N(C)c2ccccc2)n(-c2ccccc2)c2ccc(-c3nc4ccccc4s3)cc21
# Observed: enzyme activity
# Mode: inhibitor
# Tested at: 0.5 µM
# Relative to: control
target,remaining activity
"EPHA3 (Homo sapiens, UniProt P29320)",99.4%
"TBK1 (Homo sapiens, UniProt Q9UHD2)",95.7%
"NEK6 (Homo sapiens, UniProt Q9HC98)",96.1%
"MAPKAPK2 (Homo sapiens, UniProt P49137)",97.2%
"FGFR3 (Homo sapiens, UniProt P22607)",88.4%
"CSNK1G2 (Homo sapiens, UniProt P78368)",101%
"RPS6KA2 (Homo sapiens, UniProt Q15349)",101%
"LCK (Homo sapiens, UniProt P06239)",89.9%
"CSNK1G3 (Homo sapiens, UniProt Q9Y6M4)",92.4%
"MAP3K14 (Homo sapiens, UniProt Q99558)",96%
"MAPK3 (Homo sapiens, UniProt P27361)",112%
"ULK2 (Homo sapiens, UniProt Q8IYT8)",109%
"GSK3B (Homo sapiens, UniProt P49841)",105%

# Sample 4
# Target: Sal-like protein 4, full length isoform B (SALL4, Homo sapiens, UniProt Q9UJQ4-2, residues 1-616)
# Technique: universal PBM
# Molecule type: double-stranded DNA, one strand shown
# Sample: in vitro
# Tested at: not given
# Setting: 8-mer, flanks averaged, mean of replicates
# Reading: higher = stronger binding
Sequence,E-score
ACAATCGG,-0.0182
CCTTTTCG,0.109
CGCACCGA,-0.279
CGAGACAC,-0.202
CCTTCGGA,-0.239
AACCTTAC,0.181
CACTCTAC,0.0291
ATAGAGTG,0.0768

# A few entries again (sample 4):
Sequence,E-score
ACAATCGG,-0.0182
CCTTTTCG,0.109
CGCACCGA,-0.279
